Results collected from several papers.
Lines come from different studies, so protocols differ.
Technique: steady-state kinetics
B1: spoIVA (Bacillus subtilis, UniProt P35149); chain MEKVDIFKDIAERTGGDIYLGVVGAVRTGKSTFIKKFMELVVLPNISNEADRARAQDELPQSAAGKTIMTTEPKFVPNQAMSVHVSDGLDVNIRLVDCVGYTVPGAKGYEDENGPRMINTPWYEEPIPFHEAAEIGTRKVIQEHSTIGVVITTDGTIGDIARSDYIEAEERVIEELKEVGKPFIMVINSVRPYHPETEAMRQDLSEKYDIPVLAMSVESMRESDVLSVLREALYEFPVLEVNVNLPSWVMVLKENHWLRESYQESVKETVKDIKRLRDVDRVVGQFSEFEFIESAGLAGIELGQGVAEIDLYAPDHLYDQILKEVVGVEIRGRDHLLELMQDFAHAKTEYDQVSDALKMVKQTGYGIAAPALADMSLDEPEIIRQGSRFGVRLKAVAPSIHMIKVDVESEFAPIIGTEKQSEELVRYLMQDFEDDPLSIWNSDIFGRSLSSIVREGIQAKLSLMPENARYKLKETLERIINEGSGGLIAIIL
B2: protein (Listeria innocua, UniProt A0ACH1DCV7); chain MESLELEQLVKKVLLEKLAEQKEVPTKTTTQGAKSGVFDTVDEAVQAAVIAQNCYKEKSLEERRNVVKAIREALYPEIETIATRAVAETGMGNVTDKILKNTLAIEKTPGVEDLYTEVATGDNGMTLYELSPYGVIGAVAPSTNPTETLICNSIGMLAAGNAVFYSPHPGAKNISLWLIEKLNTIVRDSCGIDNLIVTVAKPSIQAAQEMMNHPKVPLLVITGGPGVVLQAMQSGKKVIGAGAGNPPSIVDETANIEKAAADIVDGASFDHNILCIAEKSVVAVDSIADFLLFQMEKNGALHVTNPSDIQKLEKVAVTDKGVTNKKLVGKSATEILKEAGIACDFTPRLIIVETEKSHPFATVELLMPIVPVVRVPDFDEALEVAIELEQGLHHTATMHSQNISRLNKAARDMQTSIFVKNGPSFAGLGFRGEGSTTFTIATPTGEGTTTARHFARRRRCVLTDGFSIR
B3: protein G96D (Streptomyces coelicolor, UniProt P16544); chain MATQDSEVALVTGATSGIGLEIARRLGKEGLRVFVCARGEEGLRTTLKELREAGVEADGRTCDVRSVPEIEALVAAVVERYGPVDVLVNNAGRPGDGATAELADELWLDVVETNLTGVFRVTKQVLKAGGMLERGTGRIVNIASTGGKQGVVHAAPYSASKHGVVGFTKALGLELARTGITVNAVCPGFVETPMAASVREHYSDIWEVSTEEAFDRITARVPIGRYVQPSEVAEMVAYLIGPGAAAVTAQALNVCGGLGNY
B4: SULT2A1 (Homo sapiens, UniProt Q06520); chain MSDDFLWFEGIAFPTMGFRSETLRKVRDEFVIRDEDVIILTYPKSGTNWLAEILCLMHSKGDAKWIQSVPIWERSPWVESEIGYTALSETESPRLFSSHLPIQLFPKSFFSSKAKVIYLMRNPRDVLVSGYFFWKNMKFIKKPKSWEEYFEWFCQGTVLYGSWFDHIHGWMPMREEKNFLLLSYEELKQDTGRTIEKICQFLGKTLEPEELNLILKNSSFQSMKENKMSNYSLLSVDYVVDKAQLLRKGVSGDWKNHFTVAQAEDFDKLFQEKMADLPRELFPWE
B5: MCAT R178Q (Homo sapiens, UniProt Q8IVS2); chain GQGSQVVGMGRGLLNYPRVRELYAAARRVLGYDLLELSLHGPQETLDRTVHCQPAIFVASLAAVEKLHHLQPSVIENCVAAAGFSVGEFAALVFAGAMEFAEGLYAVKIQAEAMQEASEAVPSGMLSVLGQPQSKFNFACLEAREHCKSLGIENPVCEVSNYLFPDCRVISGHQEALRFLQKNSSKFHFRRTRMLPVSGAFHTRLMEPAVEPLTQALKAVDIKKPLVSVYSNVHAHRYRHPGHIHKLLAQQLVSPVKWEQTMHAIYERKKGRGFPQTFEVGPGRQLGAILKSCNMQAWKSYSAVDVL
B6: PGDH1 (Oryza sativa, UniProt B7F6I8); chain VPGKPTVLVAEKLGAAGLELLRGFANVDCSYGLSPEELRAKIPLCDALIVRSGTKVGRDVFEASGGRLRVVGRAGVGIDNVDLAAATEHGCLVVNAPTANTVAAAEHGIALLTAMSRNIAQADASLKAGKWQRNKYVGVSLVGKTIAILGFGKVGSEVARRAKGLGMHVIAHDPYASADRAHAIGVELVSMEDALTTADFISLHMPLTPATNKMLNDETFAKMKKGVRIINVARGGVIDEDALVRALDSGIVAQAALDVFTKEPPAPDSKLVLHENVTVTPHLGASTVEAQEGVAIEIAEAVIGALKGELAASAVNAPMVPAEVLSELAPYVVLAEKLGRLAVQLVAGGGGIKSVKVTYASARAPDDLDTRLLRAMITKGLIEPISSVFVNLVNADFTAKQRGVRITEERILLDGSPETPIDYIQVHIAHVESKFPSAISESGEITVEGKVKDGIPHLTKVGSFQVDVSLEGSLILCRQVDQPGMIGAVGSVLGEENVNVSFMSVGRIAPRKHAVMAIGVDEEPKKSTLTKIGEIPAIEEFVFLKL
UniProt Q3L245, sequence (whole entry, looked up): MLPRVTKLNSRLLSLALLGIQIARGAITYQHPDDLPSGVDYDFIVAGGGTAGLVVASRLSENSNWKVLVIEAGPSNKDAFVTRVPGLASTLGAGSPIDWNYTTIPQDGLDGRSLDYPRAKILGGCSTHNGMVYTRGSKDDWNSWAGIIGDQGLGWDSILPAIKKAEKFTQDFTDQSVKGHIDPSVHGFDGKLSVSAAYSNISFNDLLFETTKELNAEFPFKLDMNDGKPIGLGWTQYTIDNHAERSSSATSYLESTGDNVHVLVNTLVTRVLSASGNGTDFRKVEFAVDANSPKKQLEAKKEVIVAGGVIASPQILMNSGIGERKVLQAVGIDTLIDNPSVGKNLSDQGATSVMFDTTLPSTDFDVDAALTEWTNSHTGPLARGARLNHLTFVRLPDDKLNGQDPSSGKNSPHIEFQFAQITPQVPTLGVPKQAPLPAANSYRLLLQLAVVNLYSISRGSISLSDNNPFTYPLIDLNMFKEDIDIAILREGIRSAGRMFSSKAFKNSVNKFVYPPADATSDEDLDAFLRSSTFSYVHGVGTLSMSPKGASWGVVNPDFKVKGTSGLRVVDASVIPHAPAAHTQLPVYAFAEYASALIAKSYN
UniProt Q8C0L6, sequence (whole entry, looked up): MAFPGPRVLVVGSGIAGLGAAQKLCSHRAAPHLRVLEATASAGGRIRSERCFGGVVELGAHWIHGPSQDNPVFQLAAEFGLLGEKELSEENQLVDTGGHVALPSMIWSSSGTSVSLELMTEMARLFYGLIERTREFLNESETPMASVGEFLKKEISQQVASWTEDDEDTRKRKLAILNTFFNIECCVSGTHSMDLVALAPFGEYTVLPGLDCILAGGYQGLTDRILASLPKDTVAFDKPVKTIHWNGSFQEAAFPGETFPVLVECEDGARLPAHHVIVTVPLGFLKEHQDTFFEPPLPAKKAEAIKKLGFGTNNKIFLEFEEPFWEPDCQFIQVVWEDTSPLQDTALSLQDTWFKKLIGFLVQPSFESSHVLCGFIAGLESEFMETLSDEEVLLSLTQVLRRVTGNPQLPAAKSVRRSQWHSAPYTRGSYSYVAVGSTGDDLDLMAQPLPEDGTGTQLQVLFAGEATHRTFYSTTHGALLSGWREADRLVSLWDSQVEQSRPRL
UniProt P49419, sequence (whole entry, looked up): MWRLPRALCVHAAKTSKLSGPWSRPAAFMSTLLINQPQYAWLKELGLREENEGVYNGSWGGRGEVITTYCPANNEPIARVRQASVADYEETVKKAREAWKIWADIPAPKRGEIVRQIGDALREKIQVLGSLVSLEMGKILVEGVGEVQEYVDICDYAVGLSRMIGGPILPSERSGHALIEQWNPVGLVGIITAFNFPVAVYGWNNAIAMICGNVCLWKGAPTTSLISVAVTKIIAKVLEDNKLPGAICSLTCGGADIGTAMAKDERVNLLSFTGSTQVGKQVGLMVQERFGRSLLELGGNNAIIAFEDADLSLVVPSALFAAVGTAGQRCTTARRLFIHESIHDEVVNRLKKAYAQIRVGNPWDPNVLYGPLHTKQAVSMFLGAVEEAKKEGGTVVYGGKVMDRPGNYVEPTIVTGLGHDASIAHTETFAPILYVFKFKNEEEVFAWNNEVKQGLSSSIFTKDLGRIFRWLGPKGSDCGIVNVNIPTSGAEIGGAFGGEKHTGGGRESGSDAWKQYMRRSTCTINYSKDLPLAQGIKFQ
UniProt H6U1I8, sequence (whole entry, looked up): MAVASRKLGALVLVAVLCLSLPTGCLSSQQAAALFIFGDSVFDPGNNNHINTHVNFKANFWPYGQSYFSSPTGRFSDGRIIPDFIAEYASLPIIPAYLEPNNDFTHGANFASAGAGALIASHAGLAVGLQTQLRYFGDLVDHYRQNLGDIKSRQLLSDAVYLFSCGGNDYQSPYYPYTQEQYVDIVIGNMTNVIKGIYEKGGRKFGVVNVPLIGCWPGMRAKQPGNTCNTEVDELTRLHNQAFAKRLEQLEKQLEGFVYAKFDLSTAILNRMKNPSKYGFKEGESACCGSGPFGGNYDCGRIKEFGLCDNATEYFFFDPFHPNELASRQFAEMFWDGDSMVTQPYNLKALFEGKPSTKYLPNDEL

| Molecule | substrate | medium | pH | temperature | setting | added | Km [µM] |
| --- | --- | --- | --- | --- | --- | --- | --- |
| enzyme (UniProt A0A7J5BGR1) | COc1cc(CN)ccc1O |  | pH 8 | 25 °C |  |  | 350 |
| pdh1 (Macropsalliota meleagris, UniProt Q3L245) | Nc1ccc2nc3ccc(N)cc3[s+]c2c1 |  | pH 7.5 | 22 °C | apparent |  | 120 |
| B1 (spoIVA) | Nc1ncnc2c1ncn2[C@@H]1O[C@H](COP(=O)(O)OP(=O)(O)OP(=O)(O)O)[C@@H](O)[C@H]1O |  | pH 7.5 | 37 °C | NaCl 150 mM |  | 412 |
| B2 (protein) | CC=O | cell extract |  |  | not purified | CoA | 3900 |
| DAD V1M (Burkholderia sp.) | O=C(CO)c1ccc(O)cc1 |  | pH 6 | 20 °C |  | O2 | 0.63 |
| Paox (Mus musculus, UniProt Q8C0L6) | c1ccc(CNCCCCNCc2ccccc2)cc1 |  | pH 8.6 | 30 °C |  |  | 27 |
| B3 (protein G96D) | O[C@H]1CCCc2ccccc21 |  | pH 7.4 |  | phosphate 400 mM, NADPH 250 µM printed | NADP+, reverse reaction | 33800 |
| B4 (SULT2A1) | C[C@H](CCCC(CO)CO)[C@H]1CC[C@H]2[C@@H]3[C@H](O)C[C@H]4C[C@H](O)CC[C@]4(C)[C@H]3C[C@H](O)[C@]12C |  | pH 7 | 37 °C | substrate inhibition | PAPS 14 µM | 181 |
| B5 (MCAT R178Q) | CC(C)(COP(=O)(O)OP(=O)(O)OC[C@H]1O[C@@H](n2cnc3c(N)ncnc32)[C@H](O)[C@@H]1OP(=O)(O)O)[C@@H](O)C(=O)NCCC(=O)NCCSC(=O)CC(=O)O |  | pH 6.8 | 20 °C | labelled substrate | holo-ACP 20 µM | 38.6 |
| ALDH7A1 (Homo sapiens, UniProt P49419) | N[C@@H](CCCC=O)C(=O)O |  | pH 8 | 26 °C |  | NAD+ 2.5 mM | 64 |
| enzyme (Tanacetum cinerariifolium, UniProt H6U1I8) | CC(C)=C[C@@H]1[C@@H](C(=O)SCCn2ccnc2)C1(C)C |  | pH 7.5 | 25 °C |  |  | 107 |
| Gcs (Leishmania donovani, UniProt Q67BG3) | N[C@@H](CCC(=O)O)C(=O)O |  |  |  | apparent | ATP, L-cysteine, Mg2+ | 9200 |
| B6 (PGDH1) | O=C(O)[C@H](O)COP(=O)(O)O |  | pH 9 | 25 °C | NaCl 0.1 M, apparent | NAD+ | 175 |

A few entries again:
| Molecule | substrate | medium | pH | temperature | setting | added | Km [µM] |
| --- | --- | --- | --- | --- | --- | --- | --- |
| Paox (Mus musculus, UniProt Q8C0L6) | c1ccc(CNCCCCNCc2ccccc2)cc1 |  | pH 8.6 | 30 °C |  |  | 27 |
| B3 (protein G96D) | O[C@H]1CCCc2ccccc21 |  | pH 7.4 |  | phosphate 400 mM, NADPH 250 µM printed | NADP+, reverse reaction | 33800 |
